# Experimental data of several laboratories.
# A part holds a random share of what one study measured. “And” joins repeats or separate records; there may be more than shown.
# UniProt P23975, sequence (whole entry, looked up): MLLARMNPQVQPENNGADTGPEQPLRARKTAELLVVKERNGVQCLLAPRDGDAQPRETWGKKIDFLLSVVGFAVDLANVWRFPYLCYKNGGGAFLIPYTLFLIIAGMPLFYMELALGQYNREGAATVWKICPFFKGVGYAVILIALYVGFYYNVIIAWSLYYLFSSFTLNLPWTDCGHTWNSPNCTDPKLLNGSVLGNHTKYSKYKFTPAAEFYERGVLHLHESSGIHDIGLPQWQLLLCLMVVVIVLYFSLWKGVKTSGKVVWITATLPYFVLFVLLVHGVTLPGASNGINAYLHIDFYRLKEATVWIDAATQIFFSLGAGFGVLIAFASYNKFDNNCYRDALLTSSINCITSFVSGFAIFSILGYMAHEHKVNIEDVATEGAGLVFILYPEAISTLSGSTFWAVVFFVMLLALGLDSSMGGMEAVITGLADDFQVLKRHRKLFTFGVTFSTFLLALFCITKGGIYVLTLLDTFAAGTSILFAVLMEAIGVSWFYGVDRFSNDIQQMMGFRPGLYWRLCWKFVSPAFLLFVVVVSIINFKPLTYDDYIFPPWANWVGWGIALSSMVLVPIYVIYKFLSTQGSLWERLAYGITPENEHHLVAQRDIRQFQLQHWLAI

# Sample 1
# Compound: CNC(=O)c1ccc(-c2cnn3ccc(C(=O)N(C)c4ccc(Cl)c(C(=O)OC)c4)cc23)cc1
# Sample: plasma
# Route: oral
system,setting,Cmax [ng/mL]
"Wistar rat, both sexes","50 mg/kg/day, 2 weeks, GLP toxicology study",1.02
female C57BL/6 mouse,3 mg/kg/day,0.1
"Wistar rat, both sexes","250 mg/kg/day, 2 weeks, GLP toxicology study",2.09

# Sample 2
# Target: UDP-N-acetylglucosamine--peptide N-acetylglucosaminyltransferase 110 kDa subunit (OGT, Homo sapiens, UniProt O15294)
# UniProt O15294, sequence (whole entry, looked up): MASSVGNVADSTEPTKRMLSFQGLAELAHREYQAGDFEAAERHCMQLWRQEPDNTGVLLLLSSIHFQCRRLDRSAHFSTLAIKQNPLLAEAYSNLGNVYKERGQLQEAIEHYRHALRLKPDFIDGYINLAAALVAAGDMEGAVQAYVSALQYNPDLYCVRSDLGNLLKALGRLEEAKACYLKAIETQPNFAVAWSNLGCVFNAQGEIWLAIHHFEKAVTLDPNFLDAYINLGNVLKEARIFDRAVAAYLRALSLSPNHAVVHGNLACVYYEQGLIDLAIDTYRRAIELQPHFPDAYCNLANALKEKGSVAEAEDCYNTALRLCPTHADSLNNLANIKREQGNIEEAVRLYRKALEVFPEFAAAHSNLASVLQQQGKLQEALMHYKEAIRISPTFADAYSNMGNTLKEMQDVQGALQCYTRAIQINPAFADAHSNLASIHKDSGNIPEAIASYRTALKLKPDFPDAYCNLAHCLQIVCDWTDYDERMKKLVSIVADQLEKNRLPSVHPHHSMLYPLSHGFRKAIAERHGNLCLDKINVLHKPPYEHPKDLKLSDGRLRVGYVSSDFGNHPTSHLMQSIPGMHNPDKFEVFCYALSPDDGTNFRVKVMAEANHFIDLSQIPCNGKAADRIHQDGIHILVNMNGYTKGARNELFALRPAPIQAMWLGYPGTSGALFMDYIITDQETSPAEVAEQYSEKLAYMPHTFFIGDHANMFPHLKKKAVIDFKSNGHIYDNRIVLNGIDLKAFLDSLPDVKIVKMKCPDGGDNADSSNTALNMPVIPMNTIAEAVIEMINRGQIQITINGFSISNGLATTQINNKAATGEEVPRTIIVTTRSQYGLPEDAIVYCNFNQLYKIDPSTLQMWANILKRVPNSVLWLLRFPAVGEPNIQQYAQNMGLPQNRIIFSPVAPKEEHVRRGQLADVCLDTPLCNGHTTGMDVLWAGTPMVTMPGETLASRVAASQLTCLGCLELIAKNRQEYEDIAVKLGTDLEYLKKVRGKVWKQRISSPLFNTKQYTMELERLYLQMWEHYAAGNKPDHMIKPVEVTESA
# Observed: binding
# Method: phage display NGS
# Form: peptide
# Concentration: concentration not given
# Notes: panning round 2
# Baseline: input library
Molecule,enrichment fold change
DVYLHKHQRDHAYVA,11.3
TYRHHNHHPLGEADV,11.7
HLTMGHSRTDDSRNH,5.98
HTEAHVNRHRHEHQI,5.57
DNVYPMYQMTYKAID,8.76
YRHPPWDHHLDHHGR,5.49
HIQEMHWHQINHEFT,2.89

# Single results of other studies
Substance,target or system,assay,system,setting,measurement,result
O=C1CCC(N2Cc3c(ccc4c3OCC43CCN(Cc4ccccc4)CC3)C2=O)C(=O)N1 (centres unmarked),,,"male ICR mice, plasma","intravenous, 1.0 mg/kg",clearance,2510 mL/h/kg and 2210 mL/h/kg
O=C1NC(c2ccccn2)Sc2ccccc21 (centres unmarked),"Sodium-dependent noradrenaline transporter (SLC6A2, Homo sapiens, UniProt P23975)",ligand displacement,,10 µM,inhibition,28.7%
"MTBP (Homo sapiens, UniProt Q96DY7)","VPS4A (Homo sapiens, UniProt Q9UN37)",cross-linking MS,,added: DSSO,cross-linked residues,K289 to K69
COc1cc(C(=O)OCCCN2CCCN(CCCOC(=O)c3cc(OC)c(OC)c(OC)c3)CC2)cc(OC)c1OC,,,"CD-1 mice, male, brain","subcutaneous, 30 mg/kg, 0.1667 h",concentration,166 ng/mL

# For quick reference, copied from above (sample 1):
system,setting,Cmax [ng/mL]
female C57BL/6 mouse,3 mg/kg/day,0.1
